Assay results from different studies.
Numbered parts are unrelated; each lists some results of a single study. Positions count from the first letter of the parent shown.

Block 1
Target: human cyclin A2
Effect on: peptide binding
Technique: competitive growth sequencing
Molecule type: peptide
Organism: Saccharomyces cerevisiae
Strain: cyclin A2-Cln2 fusion strain
Concentration: concentration not given
Setting: combined libraries
Baseline: unfused Cln2 strain
Reading: direction not given
With `GSPLKKLFTSTGA` the binding score was 1.3.
The binding score of `GSPLKKLFTSTAL` is reported as 0.21.
For `GSPLKALFTSTGL`, the binding score was -0.0163.

Block 2
Target: PABPC1L2, full length, GST fusion (mouse, UniProt A0ABA7IW68)
Technique: RNAcompete
Molecule type: RNA
Sample: in vitro
Concentration: 20 nM
Setting: 7-mer, probes averaged, single round
Baseline: mean of 7-mers
Reading: higher = stronger binding
Residues (chain): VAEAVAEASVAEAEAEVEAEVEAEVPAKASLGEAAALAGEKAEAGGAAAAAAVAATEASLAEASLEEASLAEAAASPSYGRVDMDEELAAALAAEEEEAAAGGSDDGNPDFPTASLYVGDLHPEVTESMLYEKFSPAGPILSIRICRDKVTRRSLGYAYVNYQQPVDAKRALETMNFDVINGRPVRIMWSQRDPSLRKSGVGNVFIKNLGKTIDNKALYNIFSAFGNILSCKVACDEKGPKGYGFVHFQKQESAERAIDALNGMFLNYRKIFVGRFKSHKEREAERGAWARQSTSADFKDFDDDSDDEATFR
`GUGCCAU` gave a 7-mer Z-score of -0.151.
The 7-mer Z-score of `GGGACGC` is reported as 0.209.
The 7-mer Z-score of `ACCUUAU` is reported as -0.215.
`CACGCGA` has a 7-mer Z-score of -0.117.
`AUAUAUG` gave a 7-mer Z-score of 0.0642.
For `GGUGUAG`, the 7-mer Z-score was 0.18.
`AACCUGA` has a 7-mer Z-score of 0.0805.
The 7-mer Z-score of `CGUGGCU` is reported as 0.131.
`UUAUUAU` has a 7-mer Z-score of -0.211.
The 7-mer Z-score of `CCCCGAC` is reported as -0.378.
For `UUCGUCA`, the 7-mer Z-score was -0.45.
The 7-mer Z-score of `UAGUUUU` is reported as -0.519.
The 7-mer Z-score of `UGCACAC` is reported as -0.177.
The 7-mer Z-score of `AACGAUC` is reported as 0.00436.
The 7-mer Z-score of `UGCACAG` is reported as -0.171.
The 7-mer Z-score of `CCGUUAA` is reported as -0.0536.
`AUCCUGA` gave a 7-mer Z-score of -0.228.
For `AGAGCUU`, the 7-mer Z-score was -0.28.
With `GCCUCUA` the 7-mer Z-score was -0.329.
With `UAACGUA` the 7-mer Z-score was -0.108.
For `AUUGCGA`, the 7-mer Z-score was -0.021.
`GGGCCAG` has a 7-mer Z-score of 0.387.
With `UAAAUAG` the 7-mer Z-score was 1.79.
`GAUGAAU` gave a 7-mer Z-score of -0.135.
For `CGUAGUG`, the 7-mer Z-score was -0.237.

Block 3
Target: RNA binding protein fox-1 homolog 2, RRM domain, GST-SBP tag (RBFOX2, Homo sapiens, UniProt O43251-10, residues 100-194)
Technique: RNA Bind-n-Seq
Molecule type: RNA
Sample: in vitro
Concentration: 365 nM
Setting: natural RNA segment, single round, ends assumed
Baseline: no-protein control
Reading: higher = stronger binding
Target sequence (chain): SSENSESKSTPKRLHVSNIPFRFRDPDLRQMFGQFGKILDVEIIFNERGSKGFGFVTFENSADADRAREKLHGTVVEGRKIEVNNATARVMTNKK
For `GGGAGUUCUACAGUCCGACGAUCUCUUCUAUACCCUUCUACCUGCCCUUAGAUCUCCAUUUUUAUCAAAUAGUACAUUGCAUUUUGAAGUUUUGGGUUUUGUCCUUCAUCUUUCCCUUUCCCUUCAAAUCUUUUGGAAUUCUCGGGUGCCAA`, “RBNS enrichment (R)” read 0.684.
For `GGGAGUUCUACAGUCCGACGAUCUAGUCUUUGAAGCAAGUAUCCUGAUAGUUUAAGGCUUUGCAAUUUUAACUCCUUGAGGCCAGGCCAGAAGUGUUAGGAGCUAAGUAUGAAUGAACUGUGUAAUAAGAGAGUGGAAUUCUCGGGUGCCAA`, “RBNS enrichment (R)” read 0.729.
For `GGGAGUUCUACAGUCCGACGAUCUGAGUCAAGUCAAAUAUGUAGAUUGCCUUUGGCAAUUCUUCUUCUCAAGCACUGACACUCAUUACCGUCUGUGAUUGCCAUUUCUUCCCAAGGCCAGUCUGAACCUGAGGUGGAAUUCUCGGGUGCCAA`, “RBNS enrichment (R)” read 0.358.
For `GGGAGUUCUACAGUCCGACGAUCUAGUGCUUCCUUAGUUUCCUAGCAACUAGGUGUGCAAAUCAUGUGUUGCAGCUUUACGGUUUUUAAACUAUUUUAGAUAUUCUUAAACUAUGAACCUUCUAAACAGUACCUGGAAUUCUCGGGUGCCAA`, “RBNS enrichment (R)” read 0.56.
For `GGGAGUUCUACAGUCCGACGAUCAACCAUUUCCUCUAUGUCCUGAGCUGGGACCUGCUGUCCUAAUGCUAAGGAUGAGGGCUGUCAAACAGAAAAUGCUGAAGACUUUACAGCUGUGGGGUCCAAAACCCUAAUGGAAUUCUCGGGUGCCAA`, “RBNS enrichment (R)” read 0.275.
`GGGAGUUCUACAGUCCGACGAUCAGGAGUCACCAGAUCAUCUGGCUCAGAUGCUCAGGAUGUAUUCCUUUGGCUUACCCCGUGCUCCUGGGUUCUAUGGUGUUUCUAUAAUUAUGAAUAGUGUUGCACUGUAAUGGAAUUCUCGGGUGCCAA` — result for “RBNS enrichment (R)”: 0.203.
Under “RBNS enrichment (R)”, `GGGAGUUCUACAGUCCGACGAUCGAGGAGAAGUGUAUACAUGUUUUAUUUUAAAUUGUACGAAAGGGGAAUUUAAAAAAUAUGUAACUGCUGUUUAUACAUUGGCUCCUUACUGCUUAUUAAUCUGUAUUGUAUGGAAUUCUCGGGUGCCAA` is recorded as 1.21.
`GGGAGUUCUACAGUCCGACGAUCAGAGAGUUACCUCAGGGGAUCCAGAGUUGCCGCAAGUCUGAUGGCGCCAUCAAACUUAUGGGCAGGGAUAACAGUGUGCCUGGUUAAUAUUAAUAUUCCCAUUUUAUUAAUGGAAUUCUCGGGUGCCAA`: “RBNS enrichment (R)” 0.455.

Block 4
Target: ABI1, truncated, D143A, DHFR fusion (Arabidopsis thaliana)
Technique: DHFR PCA, deep sequencing
Sample: yeast
Setting: methotrexate growth selection, single substitutions
With: (+)-ABA 710 µM
Baseline: wild-type fitted maximum
Reading: higher = stronger binding
Starting sequence: PYL1, truncated, DHFR fusion (Arabidopsis thaliana); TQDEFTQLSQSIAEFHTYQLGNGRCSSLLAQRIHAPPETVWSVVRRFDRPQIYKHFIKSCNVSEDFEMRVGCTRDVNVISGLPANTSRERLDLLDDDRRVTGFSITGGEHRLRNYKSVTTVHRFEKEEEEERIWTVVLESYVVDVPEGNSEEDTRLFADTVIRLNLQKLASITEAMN
`T6I`: “relative binding score” 99.4%.
For `F66R`, “relative binding score” read 96.9%.
`D92P` — result for “relative binding score”: 3.88%.
For `T6N`, “relative binding score” read 111%.
For `E125S`, “relative binding score” read 106%.
`E147M` — result for “relative binding score”: 94.1%.
For `E64S`, “relative binding score” read 99.8%.
`D159Y` — result for “relative binding score”: 41%.
Under “relative binding score”, `L94H` is recorded as 104%.
Under “relative binding score”, `V100N` is recorded as 37.6%.
`H34E`: “relative binding score” 97.5%.
`H34F`: “relative binding score” 99.3%.
Under “relative binding score”, `T154V` is recorded as 102%.
For `E64Y`, “relative binding score” read 97.5%.
Under “relative binding score”, `V145A` is recorded as 83.6%.
Under “relative binding score”, `D92C` is recorded as 93.3%.
Under “relative binding score”, `A158H` is recorded as 70.9%.

Some of these lines once more (block 2):
The 7-mer Z-score of `AACGAUC` is reported as 0.00436.
The 7-mer Z-score of `UGCACAG` is reported as -0.171.
The 7-mer Z-score of `CCGUUAA` is reported as -0.0536.
`AUCCUGA` gave a 7-mer Z-score of -0.228.
For `AGAGCUU`, the 7-mer Z-score was -0.28.
